Measured values gathered from unrelated publications.
A part holds a random share of what one study measured. Changes are numbered by the printed parent chain.

Sample 1
Target: JDP2, bZIP domain (human)
Technique: DHFR protein complementation
Sample: yeast
Setting: single substitutions, most at no-binding floor
Reference: wild-type JUN-FOS pair
Reading: higher = stronger binding
Starting sequence: JUN, bZIP domain (human); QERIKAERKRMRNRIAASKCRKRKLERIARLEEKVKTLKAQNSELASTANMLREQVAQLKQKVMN; partner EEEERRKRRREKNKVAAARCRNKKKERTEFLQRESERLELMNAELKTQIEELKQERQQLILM
| Variant | binding fitness [natural log] |
| --- | --- |
| Q41A | 0.253 |
| R53A | 0.33 |
| T37R | 0.295 |
| A57T | 0.305 |
| V56D | -0.936 |
| Q41R | 0.262 |
| K36W | 0.223 |
| A46F | 0.175 |

Sample 2
Target: Sal-like protein 4, full length isoform B (SALL4, Homo sapiens, UniProt Q9UJQ4-2, residues 1-616)
Technique: universal PBM
Molecule type: double-stranded DNA, one strand shown
Sample: in vitro
Concentration: not given
Setting: 8-mer, flanks averaged, mean of replicates
Reading: higher = stronger binding
Residues (chain): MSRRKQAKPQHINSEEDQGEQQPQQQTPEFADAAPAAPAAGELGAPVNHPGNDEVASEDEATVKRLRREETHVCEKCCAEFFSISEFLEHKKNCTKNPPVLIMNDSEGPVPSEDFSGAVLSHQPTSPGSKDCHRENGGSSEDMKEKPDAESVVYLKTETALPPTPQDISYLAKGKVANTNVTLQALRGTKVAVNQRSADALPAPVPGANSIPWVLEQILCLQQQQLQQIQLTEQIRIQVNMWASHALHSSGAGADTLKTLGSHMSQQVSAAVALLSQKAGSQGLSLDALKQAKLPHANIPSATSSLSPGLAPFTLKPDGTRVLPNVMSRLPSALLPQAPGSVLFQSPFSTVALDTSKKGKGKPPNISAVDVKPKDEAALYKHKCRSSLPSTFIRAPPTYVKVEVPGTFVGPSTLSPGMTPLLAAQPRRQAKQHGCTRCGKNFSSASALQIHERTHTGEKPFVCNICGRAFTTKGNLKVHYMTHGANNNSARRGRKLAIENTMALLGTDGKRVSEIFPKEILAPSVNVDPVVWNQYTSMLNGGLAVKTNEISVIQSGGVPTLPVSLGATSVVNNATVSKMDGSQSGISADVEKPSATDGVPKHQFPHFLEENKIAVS
| Oligonucleotide | E-score |
| --- | --- |
| CTGCTGGA | -0.0812 |
| CCTACGTA | 0.18 |
| GGTGCGAC | -0.223 |
| AGCAATGC | 0.0588 |
| GATCGAGA | -0.0411 |
| CGCGACAA | 0.0486 |
| ACTACCGC | -0.0015 |
| TAAATCAA | 0.338 |

Sample 3
Target: Microphthalmia-associated transcription factor, full length (MITF, Homo sapiens, UniProt O75030-10, residues 1-413)
Technique: protein-binding microarray
Molecule type: hairpin DNA
Sample: in vitro
Concentration: not given
Setting: whole hairpin DNA, median over replicate spots
Reference: not given
Reading: higher = stronger binding
| Oligonucleotide | median fluorescence [a.u.] |
| --- | --- |
| CACTTTGCACGTGATTTTGGTCCTCCAAAATCACGTGCAAAGTGACACTC | 26500 |
| CACTTAGCACGTGATTTTGGTCCTCCAAAATCACGTGCTAAGTGACACTC (5mC at 8) | 17500 |
| GAGGCCTAGCGCGTGCTGCCTCCTGGCAGCACGCGCTAGGCCTCACACTC (5mC at 10) | 10000 |
| GAGGCCTAGCACGTCGTGCCTCCTGGCACGACGTGCTAGGCCTCACACTC (5mC at 15) | 5770 |
| GAGGCCTAGCACGGGCTGCCTCCTGGCAGCCCGTGCTAGGCCTCACACTC | 7990 |

Mixed results
Starting sequence: viral docking peptide; KGVKRKLFAEDSS
| Variant | target | assay | system | conditions | how to read | endpoint | value |
| --- | --- | --- | --- | --- | --- | --- | --- |
| R5K F8L | CCND1, cyclin fold, Cln2 fusion (human) | yeast growth competition, sequencing | yeast | strong parent motif | reference: not given, higher = stronger binding | normalised enrichment score | 0.186 |

For quick reference, copied from above (sample 2):
| Oligonucleotide | E-score |
| --- | --- |
| ACTACCGC | -0.0015 |
| CCTACGTA | 0.18 |
| GATCGAGA | -0.0411 |
| CTGCTGGA | -0.0812 |
